Assay results of several laboratories.
Lines come from different studies, so protocols differ. Numbers after ± are the reported error.
PSMB6/PSMB7: PSMB6/PSMB7 (Homo sapiens, UniProt P28072+Q99436)
uncharacterized protein: uncharacterized protein (Anopheles gambiae, UniProt Q7QFG0)
CTSL: Procathepsin L (CTSL, Homo sapiens, UniProt P07711)
Mitogen-activated protein kinase 14: Mitogen-activated protein kinase 14 (Rattus norvegicus, UniProt P70618)
CA2: Carbonic anhydrase 2 (CA2, Homo sapiens, UniProt P00918)
BCHE: Cholinesterase (BCHE, Equus caballus, UniProt P81908)

CCCN(CCCC[C@H](NC(=O)[C@H](CCCN1CCOCC1)NC(=O)[C@@H](NC(=O)[C@H](Cc1ccccc1)NC(=O)c1ccc(C(C)(C)C)cc1)C1CCC1)C(=O)N[C@@H](CO)C(N)=O)C1CC2CCC1C2 (stereo partly shown)  IC50 (Chromobox protein homolog 7 (Homo sapiens, UniProt O95931); ligand displacement, TR-FRET): 11 µM
CN1CCCCC1C(=O)NC(Cc1ccc(-c2ccccc2)cc1)B(O)O (stereo not shown)  IC50 (PSMB6/PSMB7; β1c caspase-like activity, inhibitor; constitutive proteasome, together with: Z-LLE-AMC): > 10 µM
CCN1CCC[C@@H]1CNC(=O)c1cc([N+](=O)[O-])c(N(C)C)cc1OC  IC50 (uncharacterized protein; enzyme activity, inhibitor, Ellman; pH 7.4, 30 °C, together with: 1 mM acetylthiocholine): 51 µM
Cc1ccc2c(n1)c(-c1cccc(S(C)(=O)=O)c1)c(C)n2C/C(F)=C/CN  IC50 (Cytochrome P450 2B6 (CYP2B6, Homo sapiens, UniProt P20813); enzyme activity, inhibitor; human, liver microsomes): 3.4 µM
O=C(O)CCn1c(=O)oc2cc(Cl)c(Cl)cc21  IC50 (KCNA5 (Homo sapiens, UniProt P22460); ion current, blocker): > 50.1 µM
CN(C)S(=O)(=O)c1ccc2nnn(OCc3cccc4ccccc34)c2c1  IC50 (CTSL; enzyme activity, inhibitor, FRET): > 100 µM
O=C(COc1ccc(Cl)cc1Cl)Nc1ccc(CN2CCCCC2)cc1  IC50 (uncharacterized protein; enzyme activity, inhibitor, Ellman; pH 7.4, 30 °C, together with: 1 mM acetylthiocholine): 4.4 µM
[CH3][Ti+2][O]C(=O)c1ccc([S][Au][PH](c2ccccc2)(c2ccccc2)c2ccccc2)cc1.c1cc[cH-]c1.c1cc[cH-]c1  IC50 (MAPKAPK3 (Homo sapiens, UniProt Q16644); enzyme activity, inhibitor, radiometric): 0.317 µM
Nc1ccn(C2OC(COP(=O)(O)OP(=O)(O)OP(=O)(O)O)C(O)C2(F)F)c(=O)n1 (stereo not shown)  IC50 (pyrG (Escherichia coli, UniProt P0A7E5); enzyme activity; together with: 6.0 mM glutamine, 1.0 mM ATP, 0.05 mM UTP): 3.8 µM
CC[C@H](C)[C@@H]1NC(=O)CNC(=O)[C@H](CC(=O)O)NC(=O)[C@H](CC(=O)O)NC(=O)[C@@H]2CSSC[C@@H]3NC(=O)[C@H](Cc4c[nH]cn4)NC(=O)[C@H](CCCNC(=N)N)NC(=O)[C@H](CCCNC(=N)N)NC(=O)[C@@H](NC(=O)[C@H](CO)NC(=O)[C@@H](N)Cc4c[nH]cn4)CSSC[C@H](NC(=O)[C@H](C)NC(=O)[C@H](Cc4c[nH]c5ccccc45)NC(=O)CNC(=O)[C@H](CSSC[C@@H](C(=O)N[C@@H](CCCCN)C(=O)N4CCC[C@H]4C(=O)N[C@@H](CC(C)C)C(=O)N[C@@H](CCCNC(=N)N)C(=O)N[C@H](C(=O)O)C(C)C)NC1=O)NC(=O)[C@H](CCCNC(=N)N)NC(=O)[C@H](CCCNC(=N)N)NC(=O)[C@H](CC(N)=O)NC(=O)[C@H](CCC(=O)O)NC(=O)[C@H](Cc1c[nH]cn1)NC3=O)C(=O)N[C@@H](Cc1ccc(O)cc1)C(=O)N2  IC50 (KCNA1 (Homo sapiens, UniProt Q09470); ion current, inhibitor; pH 7.2): 2.9 µM
CC(C)C[C@H](NC(=O)[C@H](CC(=O)O)NC(=O)[C@H](CCCNC(=N)N)NC(=O)[C@@H]1CCCN1C(=O)[C@H](CCCCN)NC(=O)[C@H](CCCNC(=N)N)NC(=O)CNC(=O)[C@H](CCCCN)NC(=O)[C@H](C)NC(=O)[C@@H](N)Cc1ccc(O)cc1)C(=O)N[C@@H](CCC(=O)O)C(=O)N[C@@H](CC(C)C)C(=O)N1CCC[C@H]1C(=O)N[C@@H](CC(C)C)C(=O)N[C@@H](CO)C(=O)N1CCC[C@H]1C(=O)O  IC50 (Mitogen-activated protein kinase 14; enzyme activity, inhibitor, fluorescence; pH 7.4): 411 µM
CCOC(=O)C(Cc1ccccc1)NC(=O)N1CCN(CC(OCc2cccc(C)c2)c2ccc(Cl)cc2)CC1 (stereo not shown)  IC50 (ERG11 (Candida albicans, UniProt P10613); enzyme activity, inhibitor, mass spectrometry): 0.488 µM
O=C(c1cc(Cc2n[nH]c(=O)c3ccccc23)ccc1F)N1CC(CNC2CC2)C1  IC50 (PARP14 (Homo sapiens, UniProt Q460N5); enzyme activity, inhibitor): > 10 µM
CNC(=O)C[C@H](Cc1ccccc1)NC(=O)[C@@H](Cc1ccc(Cl)cc1Cl)NC(=O)[C@H](N)Cc1ccccc1C#N  IC50 (CTSL; enzyme activity, inhibitor): > 10 µM
COc1ccc(S(=O)(=O)Oc2ccc(/C=N/NS(=O)(=O)c3cc(Cl)ccc3Cl)cc2)cc1  IC50 (CA2; enzyme activity, inhibitor, absorbance): 0.106 µM
CC(C)C[C@H](NC(=O)[C@H](Cc1ccccc1)NC(=O)[C@H](CCCNC(=N)N)NC(=O)[C@H](C)NC(=O)CNC(=O)[C@@H]1CCCN1)B(O)O  IC50 (PSMB6/PSMB7; caspase-like activity, inhibitor; human proteasome 10 nM, together with: z-LLE-AMC): > 1 µM
O=C1NC2(CC2)COc2ncc(F)cc2[C@H]2COCCN2c2ccn3ncc1c3n2  organ-to-body weight ratio (Sprague-Dawley rat, female, adrenals; oral, 20 mg/kg/day, 4 weeks dosing, end of recovery): 0.024 ± 0.002%
CC(C)C[C@H](NC(=O)[C@H](CCCNC(=N)N)NC(=O)[C@@H]1CCCN1C(=O)[C@H](CCCCN)NC(=O)[C@H](CCCNC(=N)N)NC(=O)[C@H](Cc1c[nH]cn1)NC(=O)[C@H](CCCNC(=N)N)NC(=O)[C@H](Cc1ccccc1)NC(=O)[C@H](CCCCN)NC(=O)[C@H](CCCCN)NC(=O)[C@H](C)NC(=O)[C@@H](N)Cc1ccc(O)cc1)C(=O)N[C@@H](CO)C(=O)N[C@@H](CC(C)C)C(=O)N1CCC[C@H]1C(=O)NCC(=O)O  IC50 (Mitogen-activated protein kinase 14; enzyme activity, inhibitor, fluorescence; pH 7.4): 4.85 µM
CC(C)Oc1c(NC(=O)c2ccc(NC(=O)C(CC(N)=O)NC(=O)c3cc(F)c(N=Nc4c(F)cccc4F)c(F)c3)cc2)ccc(C(=O)NN=Cc2ccc(C(=O)O)cc2)c1O (stereo not shown)  IC50 (DNA gyrase (gyrA/gyrB, Escherichia coli, UniProt P0AES4+P0AES6); DNA supercoiling, inhibitor; 30 min, 37 °C, dark thermally adapted state, together with: relaxed pUC19 DNA): > 25 µM
CC(C)C[C@H](NC(=O)[C@H](C)NC(=O)[C@@H](N)Cc1ccc(O)cc1)C(=O)N[C@@H](CCC(N)=O)C(=O)N[C@@H](CCC(N)=O)C(=O)N[C@@H](CCCNC(=N)N)C(=O)N[C@@H](CCCNC(=N)N)C(=O)N[C@@H](CC(C)C)C(=O)N[C@@H](CCC(N)=O)C(=O)N[C@@H](Cc1c[nH]cn1)C(=O)N[C@@H](CCCNC(=N)N)C(=O)N[C@@H](CC(C)C)C(=O)N[C@@H](CCCNC(=N)N)C(=O)N[C@@H](CC(C)C)C(=O)N[C@@H](CCCNC(=N)N)C(=O)N[C@@H](C)C(=O)O  IC50 (Mitogen-activated protein kinase 14; enzyme activity, inhibitor, fluorescence; pH 7.4): 6.85 µM
NC(=O)CC[C@H](N)C(=O)N[C@@H](CC(N)=O)C(=O)N[C@@H](CC(=O)O)C(=O)N[C@@H](Cc1ccccc1)C(=O)O  IC50 (ACE (Homo sapiens, UniProt P12821); enzyme activity, inhibitor): ~171 µM
CC(C)C[C@H](NC(=O)[C@H](CC(C)C)NC(=O)[C@H](CCCNC(=N)N)NC(=O)[C@H](CC(C)C)NC(=O)[C@H](CCCCN)NC(=O)[C@@H]1CCCN1C(=O)[C@H](CCCNC(=N)N)NC(=O)[C@H](CCCCN)NC(=O)[C@H](CC(C)C)NC(=O)[C@H](CCCNC(=N)N)NC(=O)[C@H](Cc1ccccc1)NC(=O)[C@H](CCCCN)NC(=O)[C@H](CCCCN)NC(=O)[C@H](C)NC(=O)[C@@H](N)Cc1ccc(O)cc1)C(=O)N[C@@H](CCCCN)C(=O)O  IC50 (Mitogen-activated protein kinase 14; enzyme activity, inhibitor, fluorescence; pH 7.4): 1.46 µM
COc1ccccc1-c1n[nH]c2nc(NC3CCN(C(=O)Cc4ccc(F)cc4F)CC3)ncc12  relative abundance (bead binding, competition bead pull-down, measured: LINJ.36.6110; Leishmania donovani axenic amastigote extract; 10 µM; baseline: vehicle): 0.94
C[C@@H]1COCCN1c1nc(NCc2cccnc2C(F)(F)F)c2cccnc2n1  IC50 (human phosphodiesterase 3): > 100 µM
CN(C)CCCN1C(=O)CSC1c1ccccc1Cl (stereo not shown)  IC50 (uncharacterized protein; enzyme activity, inhibitor, Ellman; together with: 1 mM acetylthiocholine): > 200 µM
O=C(O)C(/C=C/c1ccc(Cl)cc1)=N\Nc1nc(-c2ccc(Br)cc2)cs1  IC50 (BCHE; enzyme activity, inhibitor): 6.09 µM
CSCC[C@H](NC(=O)[C@H](Cc1ccc(O)cc1)NC(=O)[C@H](CCC(N)=O)NC(=O)[C@@H](NC(=O)[C@H](Cc1c[nH]cn1)NC(=O)[C@H](CCC(=O)O)NC(=O)[C@H](C)NC(=O)[C@@H](NC(=O)[C@@H](N)CCC(=O)O)C(C)C)C(C)C)C(=O)O  IC50 (MHC-I ELA-A2, horse; binding, competitive radioligand binding; pH 7): 0.0024 µM
CC(C)C[C@H](NC(=O)[C@H](CO)NC(=O)[C@H](CC(C)C)NC(=O)[C@H](CCCCN)NC(=O)[C@@H]1CCCN1C(=O)[C@H](CCCCN)NC(=O)[C@H](CCCCN)NC(=O)[C@H](CCCCN)NC(=O)[C@H](CCCNC(=N)N)NC(=O)[C@H](CO)NC(=O)[C@H](CS)NC(=O)[C@H](CCCCN)NC(=O)[C@H](C)NC(=O)[C@@H](N)Cc1ccc(O)cc1)C(=O)N[C@@H](CCCCN)C(=O)N[C@@H](C)C(=O)O  IC50 (Mitogen-activated protein kinase 14; enzyme activity, inhibitor, fluorescence; pH 7.4): 1.89 µM
O=C(O)C(/C=C/c1ccc(Cl)cc1)=N\Nc1nc(-c2ccc(F)cc2)cs1  IC50 (BCHE; enzyme activity, inhibitor): 7.14 µM
Cc1cc(O)c2c(c1)OC(C)(C)c1ccc(C)cc1-2  IC50 (rat intestinal maltase; inhibitor; rat intestinal acetone powder; 10 min, 37 °C, together with: maltose 10 mM): 680 ± 50 µM
CC(C)C[C@H](NC(=O)[C@H](CCCNC(=N)N)NC(=O)[C@H](CC(C)C)NC(=O)[C@H](Cc1ccc(O)cc1)NC(=O)[C@H](CCCCN)NC(=O)[C@H](Cc1c[nH]cn1)NC(=O)[C@H](C)NC(=O)[C@H](CCCCN)NC(=O)[C@H](CCCNC(=N)N)NC(=O)[C@@H]1CCCN1C(=O)[C@H](CCCCN)NC(=O)[C@H](CCCNC(=N)N)NC(=O)[C@H](C)NC(=O)[C@@H](N)Cc1ccc(O)cc1)C(=O)N[C@@H](CO)C(=O)N[C@@H](CCCNC(=N)N)C(=O)O  IC50 (Mitogen-activated protein kinase 14; enzyme activity, inhibitor, fluorescence; pH 7.4): 10.4 µM
O=S(=O)(N/N=C/c1ccc(OS(=O)(=O)c2ccc(Cl)cc2)cc1)c1cc(Cl)ccc1Cl  IC50 (CA2; enzyme activity, inhibitor, absorbance): 0.0279 µM
CC(C)C[C@H](NC(=O)[C@H](CCCCN)NC(=O)[C@H](CCCCN)NC(=O)[C@H](CCCCN)NC(=O)[C@H](CCCCN)NC(=O)[C@@H]1CCCN1C(=O)[C@H](CCCNC(=N)N)NC(=O)[C@H](Cc1ccccc1)NC(=O)[C@H](CCCCN)NC(=O)[C@H](CCCCN)NC(=O)[C@H](C)NC(=O)[C@@H](N)Cc1ccc(O)cc1)C(=O)N[C@@H](CCCNC(=N)N)C(=O)N[C@@H](CC(C)C)C(=O)N[C@@H](CC(N)=O)C(=O)N1CCC[C@H]1C(=O)O  IC50 (Mitogen-activated protein kinase 14; enzyme activity, inhibitor, fluorescence; pH 7.4): 1.97 µM
O=C(c1cccc(-n2cccc2)c1)N1CCCN(S(=O)(=O)c2ccc(F)cc2)CC1  IC50 (CTSL; enzyme activity, inhibitor, FRET): 66.9 µM
